Results of several laboratories.
Protocols differ between the studies behind these lines.
Organism: Staphylococcus aureus

SMILES	test	test system	setting	MIC
CC[C@H](C)[C@H](N)C(=O)N[C@@H](CCCNC(=N)N)C(=O)N[C@H](C(=O)N[C@@H](Cc1c[nH]c2ccccc12)C(=O)N[C@@H](CCCCN)C(=O)N[C@@H](CCCCN)C(=O)N[C@@H](Cc1ccccc1)C(=O)N[C@H](C(=O)N[C@@H](CCCNC(=N)N)C(=O)N[C@@H](CCCCN)C(=O)N[C@@H](CCSC)C(=O)N[C@@H](CCCCN)C(=O)N[C@@H](C)C(=O)N[C@H](C(=O)N[C@@H](Cc1ccc(O)cc1)C(=O)N[C@@H](Cc1c[nH]cn1)C(N)=O)[C@@H](C)CC)C(C)C)C(C)C	broth dilution	ATCC 25923, Mueller-Hinton broth	24 h, 37 °C	100 µM
COc1ccnc(NC(=S)N2CCN(c3ncc(C(F)(F)F)cc3Cl)CC2)c1		MRSA USA400-MW2		1.8 µM
CC[C@H](C)[C@H](NC(=O)[C@H](CC(C)C)NC(=O)[C@H](CCCCN)NC(=O)[C@@H](NC(=O)[C@H](C)NC(=O)[C@H](CCC(=O)O)NC(=O)[C@H](Cc1c[nH]cn1)NC(=O)[C@@H](NC(=O)[C@H](CCCCN)NC(=O)[C@H](CCC(N)=O)NC(=O)[C@H](Cc1ccccc1)NC(=O)[C@@H](NC(=O)[C@H](CCCCN)NC(=O)[C@H](CCCCN)NC(=O)[C@H](CC(C)C)NC(=O)[C@H](C)N)C(C)C)[C@@H](C)CC)[C@@H](C)CC)C(N)=O	broth microdilution	USA300 resistant	18 h, 37 °C	4 µM
CC[C@H](C)[C@H](NC(=O)[C@H](CC(=O)O)NC(=O)[C@@H](NC(=O)[C@H](CC(N)=O)NC(=O)[C@@H]1CCCN1C(=O)[C@@H](NC(=O)[C@@H](N)Cc1ccccc1)[C@@H](C)O)[C@@H](C)O)C(=O)N[C@H](C(=O)N[C@H](C(=O)N[C@@H](CCCNC(=N)N)C(=O)N[C@H](C(=O)N[C@H](C(=O)NCC(=O)NCC(=O)NCC(=O)NCC(=O)NCC(=O)N[C@@H](CC(C)C)C(=O)N[C@@H](CCCCN)C(=O)N[C@@H](CCCCN)C(=O)N[C@@H](CC(C)C)C(=O)N[C@@H](CC(C)C)C(=O)N[C@@H](CC(C)C)C(=O)N[C@@H](CC(C)C)C(=O)N[C@@H](CC(C)C)C(=O)N[C@@H](CCCCN)C(=O)N[C@@H](CCCCN)C(=O)N[C@@H](CC(C)C)C(=O)NCC(=O)O)[C@@H](C)O)[C@@H](C)O)[C@@H](C)O)[C@@H](C)CC		ATCC 25923, Mueller-Hinton broth	18 to 24 h, 37 °C	> 256 µg/mL
CC[C@H](C)[C@H](N)C(=O)N[C@@H](CC(C)C)C(=O)NCC(=O)N[C@H](CCCCN)C(=O)N[C@H](C(=O)N[C@@H](Cc1c[nH]c2ccccc12)C(=O)N[C@@H](CCCCN)C(=O)NCC(=O)N[C@H](C(=O)N[C@@H](CCCCN)C(=O)N[C@@H](CC(=O)O)C(=O)N[C@H](C(=O)N[C@@H](CC(C)C)C(N)=O)[C@@H](C)CC)[C@@H](C)CC)[C@@H](C)CC	broth microdilution	MRSA ATCC 33591, Mueller-Hinton broth	16 h, 37 °C	> 100 µM
CC[C@H](C)[C@H](NC(=O)[C@H](Cc1c[nH]c2ccccc12)NC(=O)[C@@H](NC(=O)[C@H](Cc1ccc(O)cc1)NC(=O)[C@@H]1CCCN1C(=O)[C@@H](NC(=O)[C@H](C)N)[C@@H](C)CC)[C@@H](C)CC)C(=O)N[C@@H](Cc1ccc(O)cc1)C(=O)N[C@@H](CCCNC(=N)N)C(=O)N[C@@H](CC(C)C)C(=O)N[C@@H](CC(C)C)C(=O)N[C@@H](CCCNC(=N)N)C(=O)N[C@@H](CCCCN)C(=O)NCC(N)=O	broth microdilution	ATCC 35556	18 h, 37 °C	> 15 µM
CC[C@H](C)[C@H](NC(=O)[C@H](CCCCN)NC(=O)[C@H](CCCCN)NC(=O)CNC(=O)[C@H](CCCCN)NC(=O)[C@H](CC(C)C)NC(=O)[C@H](CCCCN)NC(=O)[C@H](CCCNC(=N)N)NC(=O)[C@@H](NC(=O)[C@H](CC(C)C)NC(=O)[C@H](CCCNC(=N)N)NC(=O)[C@@H](N)CCCNC(=N)N)[C@@H](C)CC)C(=O)N[C@@H](Cc1ccc(O)cc1)C(=O)N[C@@H](CC(C)C)C(=O)N[C@@H](Cc1ccc(O)cc1)C(=O)N[C@@H](Cc1ccccc1)C(=O)N[C@@H](CCCCN)C(=O)N[C@@H](CC(C)C)C(=O)N[C@@H](CCC(N)=O)C(=O)N[C@@H](CC(C)C)C(=O)N[C@@H](CC(C)C)C(=O)N[C@@H](CCCCN)C(=O)N[C@@H](CCCCN)C(N)=O	broth microdilution	KCTC 1621, Mueller-Hinton broth	together with: FeCl3 4 µM	64 µM
CC[C@H](C)CCCCC(=O)N[C@@H](CCN)C(=O)N[C@H](C(=O)N[C@@H](CCN)C(=O)N[C@H]1CCNC(=O)[C@H]([C@@H](C)O)NC(=O)[C@H](CCN)NC(=O)[C@H](CCN)NC(=O)[C@H](CC(C)C)NC(=O)[C@@H](Cc2ccccc2)NC(=O)[C@H](CCN)NC1=O)[C@@H](C)O	broth microdilution	ATCC 6538	24 h	≤ 50 µM
CC[C@H](C)[C@H](NC(=O)[C@H](CC(C)C)NC(=O)[C@H](CCCNC(=N)N)NC(=O)[C@@H](N)CCCNC(=N)N)C(=O)N[C@@H](CCCNC(=N)N)C(=O)N[C@H](C(=O)N[C@@H](CC(=O)O)C(=O)N[C@H](C(=O)NCC(=O)N1CCC[C@H]1C(=O)N[C@H](C(=O)N[C@H](C(=O)N[C@@H](Cc1ccc(O)cc1)C(=O)N[C@@H](CC(=O)O)C(=O)N[C@@H](Cc1ccc(O)cc1)C(=O)N[C@@H](Cc1ccccc1)C(=O)N[C@@H](CCCCN)C(=O)N[C@@H](CC(=O)O)C(=O)N[C@@H](CCC(N)=O)C(=O)N[C@@H](CC(C)C)C(=O)N[C@@H](CC(C)C)C(=O)N[C@@H](CCCCN)C(=O)N[C@@H](CCCCN)C(N)=O)[C@@H](C)CC)[C@@H](C)CC)[C@@H](C)O)[C@@H](C)O	broth microdilution	KCTC 1621, Mueller-Hinton broth	24 h, 37 °C	> 128 µM
c1ccc(CCOC2CCCc3c2[nH]c2ccccc32)cc1 (stereo not drawn)	broth microdilution	SG511		> 16 µg/mL
CC(C)C[C@@H](NC(=O)CNC(=O)[C@@H](CCCCN)NC(=O)[C@@H](CC(C)C)NC(=O)[C@@H](CCCCN)NC(=O)[C@@H](CCCNC(=N)N)NC(=O)[C@@H](CC(C)C)NC(=O)[C@@H](CC(C)C)NC(=O)[C@@H](CCCNC(=N)N)NC(=O)[C@H](N)CCCNC(=N)N)C(=O)N[C@H](CCCCN)C(=O)N[C@H](CCCCN)C(=O)N[C@H](Cc1ccc(O)cc1)C(=O)N[C@H](CC(C)C)C(=O)N[C@H](Cc1ccc(O)cc1)C(=O)N[C@H](Cc1ccccc1)C(=O)N[C@H](CCCCN)C(=O)N[C@H](CC(C)C)C(=O)N[C@H](CCC(N)=O)C(=O)N[C@H](CC(C)C)C(=O)N[C@H](CC(C)C)C(=O)N[C@H](CCCCN)C(=O)N[C@H](CCCCN)C(N)=O	broth microdilution	KCTC 1621, Mueller-Hinton broth	24 h, 37 °C	4 µM
CCOc1ccc2ccccc2c1C(=O)N[C@@H]1C(=O)N2[C@@H]1SC(C)(C)[C@@H]2C(=O)O		mecA−, antibiotic-susceptible		1 µg/mL
